# Results of several laboratories.
# ± marks the error that the study gave.
# Cell line: U-251
SMILES,assay,setting,how to read,measurement,value
COc1ccc(C2=Nn3c(NN=C4C(=O)N(Cc5ccccc5)c5ccc(Cl)cc54)nnc3SC2)cc1,"cell growth or viability, SRB",10 µM,,inhibition,33%
COc1cc(/C=C/C(=O)/C=C(O)/C=C/c2ccc(OCC(=O)N3CCOCCOCCOCCOCC3)c(OC)c2)ccc1OCC(=O)N1CCOCCOCCOCCOCC1,"cell growth or viability, SRB",,,IC50,5.9 µM
CC/C=C\C/C=C\C/C=C\C/C=C\C/C=C\C/C=C\CCC(=O)Nc1ccn(C2OC(CO)C(O)C2(F)F)c(=O)n1 (stereo not shown),NCI60 screen,,,TGI,15.2 µM
O=C(c1cc(Cc2n[nH]c(=O)c3ccccc23)ccc1F)N1CCN(C(=O)C2CC2)CC1,"cell growth, MTT",168 h,,IC50,8 ± 1.2 µM
CC(=O)OC[C@H]1O[C@@H](Sc2sc(C(=O)c3ccc(C)cc3)c(N)c2-c2nc3ccccc3s2)[C@H](OC(C)=O)[C@@H](OC(C)=O)[C@@H]1OC(C)=O,SRB,"10 µM, 48 h",reference: untreated,growth,59.5%
COc1cc(/C=C/C(=O)/C=C(O)/C=C/c2ccc(OCC(=O)N3CCOCCOCCOCCOCCOCC3)c(OC)c2)ccc1OCC(=O)N1CCOCCOCCOCCOCCOCC1,"cell growth or viability, SRB",5 µM,,inhibition,13.8%
CC(=O)OC[C@H]1O[C@@H](Sc2sc(C(=O)c3ccc(Br)cc3)c(N)c2-c2nc3ccccc3s2)[C@H](OC(C)=O)[C@@H](OC(C)=O)[C@@H]1OC(C)=O,SRB,"10 µM, 48 h",reference: untreated,growth,57.6%
CC(=C(c1ccc(O)cc1)c1ccc(Cl)cc1)c1ccc(Cl)cc1,"cell growth or viability, SRB",,,GI50,0.57 µM
COc1cc(/C=C/C(=O)/C=C(O)/C=C/c2ccc(OCC(=O)N3CCOCCOCCOCC3)c(OC)c2)ccc1OCC(=O)N1CCOCCOCCOCC1,"cell growth or viability, SRB",,,IC50,6.8 µM
CN1CCc2cc(Nc3ncc(C(F)(F)F)c(NCc4cc[nH]n4)n3)ccc2C1,"cell growth or viability, MTT",72 h,,IC50,4.45 µM

# Repeated from above:
SMILES,assay,setting,how to read,measurement,value
CC(=O)OC[C@H]1O[C@@H](Sc2sc(C(=O)c3ccc(C)cc3)c(N)c2-c2nc3ccccc3s2)[C@H](OC(C)=O)[C@@H](OC(C)=O)[C@@H]1OC(C)=O,SRB,"10 µM, 48 h",reference: untreated,growth,59.5%
CC/C=C\C/C=C\C/C=C\C/C=C\C/C=C\C/C=C\CCC(=O)Nc1ccn(C2OC(CO)C(O)C2(F)F)c(=O)n1 (stereo not shown),NCI60 screen,,,TGI,15.2 µM
